Measured values collected from several papers.
A part holds a random share of what one study measured. Changes are numbered by the printed parent chain.
Chain of UniProt P11229 (whole entry, looked up): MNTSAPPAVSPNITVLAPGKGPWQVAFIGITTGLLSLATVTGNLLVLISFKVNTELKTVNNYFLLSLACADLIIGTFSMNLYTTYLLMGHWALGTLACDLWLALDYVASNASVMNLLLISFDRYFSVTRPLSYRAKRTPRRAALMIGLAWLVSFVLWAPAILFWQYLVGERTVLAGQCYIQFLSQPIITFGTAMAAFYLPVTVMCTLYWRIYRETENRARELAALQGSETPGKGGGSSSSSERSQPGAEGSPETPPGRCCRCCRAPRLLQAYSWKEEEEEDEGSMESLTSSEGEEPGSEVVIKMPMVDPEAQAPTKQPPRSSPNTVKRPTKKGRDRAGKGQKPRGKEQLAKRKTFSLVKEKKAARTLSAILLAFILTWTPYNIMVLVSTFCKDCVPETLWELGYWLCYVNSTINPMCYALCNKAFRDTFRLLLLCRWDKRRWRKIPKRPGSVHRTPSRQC

Sample 1
Target: UDP-N-acetylglucosamine--peptide N-acetylglucosaminyltransferase 110 kDa subunit (OGT, Homo sapiens, UniProt O15294)
Observed: binding
Method: phage display NGS
Molecule type: peptide
Tested at: concentration not given
Setting: panning round 2
Baseline: input library
Construct (O15294 1-1046): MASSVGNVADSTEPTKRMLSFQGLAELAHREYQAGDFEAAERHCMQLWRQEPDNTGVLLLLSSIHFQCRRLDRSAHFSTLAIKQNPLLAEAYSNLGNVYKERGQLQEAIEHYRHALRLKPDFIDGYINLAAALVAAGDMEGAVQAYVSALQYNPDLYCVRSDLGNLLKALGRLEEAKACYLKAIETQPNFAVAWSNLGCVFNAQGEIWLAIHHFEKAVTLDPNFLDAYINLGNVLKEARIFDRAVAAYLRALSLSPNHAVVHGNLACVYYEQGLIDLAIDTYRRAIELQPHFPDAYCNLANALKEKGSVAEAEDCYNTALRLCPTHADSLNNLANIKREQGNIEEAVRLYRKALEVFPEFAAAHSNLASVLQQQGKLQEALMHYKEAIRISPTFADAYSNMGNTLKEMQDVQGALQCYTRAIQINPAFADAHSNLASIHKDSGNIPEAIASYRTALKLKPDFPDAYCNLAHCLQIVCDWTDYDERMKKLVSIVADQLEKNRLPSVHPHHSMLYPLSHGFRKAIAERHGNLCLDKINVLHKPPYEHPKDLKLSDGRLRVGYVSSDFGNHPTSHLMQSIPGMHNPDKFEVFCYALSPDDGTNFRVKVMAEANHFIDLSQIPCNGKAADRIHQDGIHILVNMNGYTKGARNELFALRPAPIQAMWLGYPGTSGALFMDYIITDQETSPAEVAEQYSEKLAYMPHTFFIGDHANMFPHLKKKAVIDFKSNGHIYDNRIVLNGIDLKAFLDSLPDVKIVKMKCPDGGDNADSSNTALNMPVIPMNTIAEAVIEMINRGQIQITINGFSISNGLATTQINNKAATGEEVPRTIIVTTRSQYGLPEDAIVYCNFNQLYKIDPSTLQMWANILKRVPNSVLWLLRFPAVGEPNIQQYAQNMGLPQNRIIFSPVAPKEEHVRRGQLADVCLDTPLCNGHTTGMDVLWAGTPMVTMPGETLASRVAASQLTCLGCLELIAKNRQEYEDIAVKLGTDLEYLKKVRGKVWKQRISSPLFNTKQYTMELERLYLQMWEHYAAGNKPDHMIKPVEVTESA
Sequence | enrichment fold change
YETMDVFMPQYKIIA | 9.17
VKTYEPFYLIDMNRQ | 3.68
YEYYQVGVHHHPLHL | 5.57
HDPYHYRYSPQHNSY | 6.21
SMLSHYHEVMRHHRV | 4.77
SNFMPFYIIQVKADT | 18.8
KDIRQDYLPFYQITV | 28.2
HPWPYIMEHEHHHYK | 7.15

Sample 2
Target: tungstate, free oxyanion
Method: microfluidic competitive inhibition
Medium: in vitro, cell-free expressed
Tested at: not given
Setting: derived from inhibition constants, unchanged parent 2230 nM
Direction: lower = stronger binding
Parent: PafA, mature enzyme, eGFP fusion (Elizabethkingia meningoseptica, UniProt Q9KJX5); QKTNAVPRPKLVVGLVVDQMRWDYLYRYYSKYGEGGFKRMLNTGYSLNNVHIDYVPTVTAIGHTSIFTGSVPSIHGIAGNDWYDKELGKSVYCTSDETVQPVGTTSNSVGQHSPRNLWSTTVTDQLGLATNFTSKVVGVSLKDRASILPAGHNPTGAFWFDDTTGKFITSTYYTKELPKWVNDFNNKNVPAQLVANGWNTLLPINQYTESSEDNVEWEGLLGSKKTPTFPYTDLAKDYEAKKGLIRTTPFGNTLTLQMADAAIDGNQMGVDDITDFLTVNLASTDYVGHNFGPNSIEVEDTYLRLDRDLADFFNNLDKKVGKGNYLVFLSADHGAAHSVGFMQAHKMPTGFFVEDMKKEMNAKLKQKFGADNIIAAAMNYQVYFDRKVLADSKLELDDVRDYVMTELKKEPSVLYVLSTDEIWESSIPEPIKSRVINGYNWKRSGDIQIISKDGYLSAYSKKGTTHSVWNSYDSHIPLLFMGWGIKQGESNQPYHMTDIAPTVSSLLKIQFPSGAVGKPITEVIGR
Variant | oxyanion analog dissociation constant [µM]
D308G | 2.08
G340V | 2.47
T200V | 2.21
G110A | 2.52
D401G | 2.42
T123G | 1.96
F160V | 2.29
V399G | 2.02

Sample 3
Target: CCNB3, cyclin fold, Cln2 fusion (human)
Method: yeast growth competition, sequencing
Medium: yeast
Setting: strong parent motif
Baseline: not given
Direction: higher = stronger binding
Parent: viral docking peptide; TSVRRALFTGGSD
Variant | normalised enrichment score
TSVRRALFTGSSD [G11S] | 2.08
TRVRRALFTGGSD [S2R] | 1.82
TSVRRALFTGGYD [S12Y] | 1.72
TSVRRALNTGGSD [F8N] | 0.165
TVVRRALFTGGSD [S2V] | 1.06
TSVRRALQTGGSD [F8Q] | 0.295
TSVRRTLFTGGSD [A6T] | 6.31
TSVRRALFTGGPD [S12P] | 2.08

Mixed results
Structure (SMILES) | target | assay | quantity | result
COC(=O)c1cc(N(C)C(=O)c2ccn3ncc(-c4ccc(C(=O)O)cc4)c3c2)ccc1Cl | Muscarinic acetylcholine receptor M1 (CHRM1, Homo sapiens, UniProt P11229) | cell-free assay | IC50 | > 30 µM

For quick reference, copied from above (sample 1):
Sequence | enrichment fold change
HPWPYIMEHEHHHYK | 7.15
YETMDVFMPQYKIIA | 9.17
